Measured values of several laboratories.
Each line is one published result; not all experiments were run side by side. ± gives the spread as reported.
Cell line: MDCK

`Cc1cc(C)c(/C=C/c2nc(N)[nH]c(=O)c2Br)c(C)c1`: “minimum cytotoxic concentration” over 20 µM (cell morphology alteration).
With `CNc1ncnc2c1nnn2[C@@H]1C(F)=C(CO)[C@@H](O)[C@H]1O` the CC50 was over 100 µM (MTT; 3 (unit not given)).
For `CC(C)C(=O)OC[C@H]1O[C@@H](n2ccc(NO)nc2=O)[C@H](O)[C@@H]1O`, the viability was 93.32 ± 0.81% (CCK-8; 100 µM, 24 h).
For `CCCCCc1nc(N)[nH]c(=O)c1Br`, “minimum cytotoxic concentration” read over 100 µM (cell morphology alteration).
`O=c1[nH]cnc2c1nnn2[C@@H]1C(F)=C(CO)[C@@H](O)[C@H]1O` gave a CC50 of over 100 µM (MTT; 3 (unit not given)).
Under “minimum cytotoxic concentration”, `Nc1nc(CC(O)c2ccc(Cl)cc2)c(Br)c(=O)[nH]1` (stereo not drawn) is recorded as over 100 µM (cell morphology alteration).
`Cn1cc(-c2cccc(N3CCn4c(cc5c4CC(C)(C)C5)C3=O)c2CO)cc(Nc2ccncn2)c1=O`: “apparent permeability B-A” 17.9 ×10⁻⁶ cm/s (10 µM, 3 h).
For `NC(=O)c1nnn([C@@H]2C(F)=C(CO)[C@@H](O)[C@H]2O)c1N`, the CC50 was over 100 µM (MTT; 3 (unit not given)).
`Nc1ncn([C@@H]2O[C@H](CO)[C@@H](O)[C@H]2O)c(=O)n1` gave a viability of 68.77 ± 0.01% (CCK-8; 100 µM, 24 h).
For `Cn1cc(-c2cccc(N3CCc4c(cc5n4CCCC5)C3=O)c2CO)cc(Nc2ccncn2)c1=O`, “apparent permeability B-A” read 13.7 ×10⁻⁶ cm/s (10 µM, 3 h).
Under “minimum cytotoxic concentration”, `NC(=O)c1ncn([C@@H]2O[C@H](CO)[C@@H](O)[C@H]2O)n1` is recorded as over 100 µM (cell morphology alteration).
With `Cc1ncc(OC[C@@]2(c3cccc(F)c3)C[C@H]2C(=O)Nc2ccc(F)cn2)c(C)n1` the mass recovery was 94 ± 8% (1 µM, 90 min, pH 7.4 apical, 7.4 basolateral, apical to basolateral).
`CC(C)C[C@H](NC(=O)OCc1ccccc1)C(=O)N[C@@H](CC(C)C)C(=O)N[C@@H](CC1CCNC1=O)C(=O)C(=O)NC1CC1` (stereo partly drawn) gave a CC50 of 188 ± 3.6 µM (5 (unit not given)).
`Cn1cc(-c2cc(F)cc(N3CCn4c(cc5c4CCCC5)C3=O)c2CO)cc(Nc2ccc(N3CCN(C4COC4)CC3)cn2)c1=O`: “apparent permeability B-A” 14.3 ×10⁻⁶ cm/s (10 µM, 3 h).
For `CC(C)(O)Cc1nc(N)[nH]c(=O)c1Br`, “minimum cytotoxic concentration” read over 100 µM (cell morphology alteration).
With `Nc1ccn([C@@H]2O[C@H](CO)[C@@H](O)C2(F)F)c(=O)n1` the viability was 95.78 ± 0.81% (CCK-8; 100 µM, 24 h).
Under “minimum cytotoxic concentration”, `NC12CC3CC(CC(C3)C1)C2` is recorded as over 200 µM (cell morphology alteration).
`Nc1ncnc2c1nnn2[C@@H]1C(F)=C(CO)[C@@H](O)[C@H]1O` has a CC50 of over 100 µM (MTT; 3 (unit not given)).

Repeated from above:
`Nc1ncnc2c1nnn2[C@@H]1C(F)=C(CO)[C@@H](O)[C@H]1O` has a CC50 of over 100 µM (MTT; 3 (unit not given)).
With `Nc1ccn([C@@H]2O[C@H](CO)[C@@H](O)C2(F)F)c(=O)n1` the viability was 95.78 ± 0.81% (CCK-8; 100 µM, 24 h).
